Measured values collected from several papers.
Protocols differ between the studies behind these lines. ± gives the spread as reported. ≈ marks a conversion by molar mass, not a printed value.
Organism: Escherichia coli

C=C(C)C(=O)NCCCCCCCCOCc1cn(CCCCCCCCNC(=O)C(=C)C)nn1 — IC50 (growth, turbidity OD600; ΔtolC; 24 h): > 100 µM
CCOC(=O)C1(Cc2ccccc2)Oc2cc(F)ccc2N(Cc2ccccc2)C1=O (stereo not shown) — growth inhibition (BL21(DE3); 100 µM): no inhibition
Cc1ccc(C(=O)Sc2cccccc2=O)cc1 — MIC80 (microbial growth, broth dilution; ATCC35218): 24.1 µM (≈ 6.18 µg/mL)
CC[C@H](C)[C@@H]1NC(=O)CNC(=O)[C@H](CCCNC(=N)N)NC(=O)[C@H](Cc2ccc(O)cc2)NC(=O)[C@@H]2CSSC[C@H](NC1=O)C(=O)N[C@@H](Cc1ccc(O)cc1)C(=O)N[C@@H](CCCNC(=N)N)C(=O)N[C@@H](CCCNC(=N)N)C(=O)N[C@H](C(=O)N[C@@H](CCCNC(=N)N)C(=O)N[C@@H](Cc1c[nH]c3ccccc13)C(=O)N[C@@H](CCCCN)C(=O)O)CSSC[C@H](NC(=O)[C@H](Cc1c[nH]c3ccccc13)NC(=O)[C@H](Cc1c[nH]c3ccccc13)NC(=O)[C@@H](N)CCCCN)C(=O)N[C@@H](Cc1ccccc1)C(=O)N[C@@H](CCCNC(=N)N)C(=O)N[C@@H](C(C)C)C(=O)N2 — IC50 (bacterial growth; DH5α; 50% growth inhibition): > 100 µM
CC[C@H](C)[C@H](N)C(=O)N[C@@H](CC(C)C)C(=O)N[C@@H](CO)C(=O)N[C@@H](C)C(=O)N[C@H](C(=O)N[C@@H](Cc1c[nH]c2ccccc12)C(=O)N[C@@H](CO)C(=O)NCC(=O)N[C@H](C(=O)N[C@@H](CCCCN)C(=O)N[C@@H](CO)C(=O)N[C@@H](CC(C)C)C(=O)N[C@@H](Cc1ccccc1)C(N)=O)[C@@H](C)CC)[C@@H](C)CC — relative growth rate (K-12 MG1655; concentration not given, 24 h, 37 °C; baseline: no peptide): 0.177
C=C(C)C(=O)NCCCCCCCCOCc1cn(CCCCCCCCNC(=O)C(=C)C)n[n+]1C — IC50 (growth, turbidity OD600; ΔtolC; 24 h): > 100 µM
C#CCCCC(=O)N[C@H]1CCOC1=O — inhibition (LuxR reporter, antagonist; DH5α sensor strain; 4 µM, with: OHHL 200 nM): 65 ± 1%
CC[C@H](C)[C@H](NC(=O)[C@H](Cc1c[nH]c2ccccc12)NC(=O)c1ccccc1)C(=O)N[C@@H](CCCNC(=N)N)C(=O)N[C@@H](Cc1ccc(O)cc1)C(=O)N[C@@H](CCCCN)C(=O)N[C@@H](Cc1c[nH]c2ccccc12)C(=O)N1CCC[C@@H]1C(=O)N[C@@H](CCCNC(=N)N)C(=O)N[C@@H](CCCCN)C(=O)N[C@H](C(=O)N[C@H](C(=O)N[C@@H](CCCNC(=N)N)C(=O)N[C@@H](Cc1ccc(O)cc1)C(=O)N[C@@H](Cc1c[nH]c2ccccc12)C(=O)N[C@H](C(=O)NCC(=O)N1CCC[C@H]1C(N)=O)[C@@H](C)O)C(C)C)C(C)C — IC50 (growth; DH5α; 16 h, 37 °C): > 100 µM
C=C(C)C(=O)NCCCCCCCCCCOCc1cn(CCCCCCCCCCNC(=O)C(=C)C)n[n+]1C — IC50 (growth, turbidity OD600; ΔtolC; 24 h): 7.2 ± 0.5 µM
CC[C@H](C)CCCCC(=O)N[C@@H](CCN)C(=O)N[C@H](C(=O)N[C@@H](CCN)C(=O)N[C@H]1CCNC(=O)[C@H]([C@@H](C)O)NC(=O)[C@H](CCN)NC(=O)[C@H](CCN)NC(=O)[C@H](CC(C)C)NC(=O)[C@@H](CC(C)C)NC(=O)[C@H](CCN)NC1=O)[C@@H](C)O — MIC fold change (daily serial passaging; ATCC 8739; highest sub-MIC, 25 days; baseline: initial MIC): 1.37
C=CC(=O)NCCCCCCCCOCc1cn(CCCCCCCCNC(=O)C=C)n[n+]1C — IC50 (growth, turbidity OD600; ΔtolC; 24 h): > 100 µM
CC[C@H](C)[C@H](NC(=O)[C@H](CC(C)C)NC(=O)[C@H](CC(=O)O)NC(=O)[C@H](CCCNC(=N)N)NC(=O)[C@H](Cc1c[nH]c2ccccc12)NC(=O)[C@@H](N)CC(C)C)C(=O)N[C@@H](CS)C(=O)N[C@@H](CC(C)C)C(=O)N[C@@H](CS)C(=O)N[C@@H](CCCNC(=N)N)C(=O)N[C@@H](CC(N)=O)C(=O)N[C@@H](CCCNC(=N)N)C(=O)N[C@@H](CCCNC(=N)N)C(=O)N[C@@H](CS)C(=O)N[C@@H](CC(N)=O)C(=O)N[C@@H](CCCNC(=N)N)C(=O)NCC(=O)N[C@@H](CCC(N)=O)C(=O)N[C@@H](CC(C)C)C(=O)N[C@@H](Cc1ccccc1)C(=O)N1CCC[C@H]1C(=O)NCC(=O)N[C@@H](Cc1c[nH]c2ccccc12)C(=O)N[C@@H](CS)C(=O)N1CCC[C@H]1C(=O)NCC(=O)N[C@@H](Cc1c[nH]c2ccccc12)C(=O)N[C@@H](Cc1c[nH]c2ccccc12)C(=O)N[C@@H](CC(C)C)C(=O)N[C@@H](CCCNC(=N)N)C(=O)N[C@@H](CS)C(=O)N[C@@H](CS)C(=O)N[C@@H](CCCNC(=N)N)C(=O)N[C@@H](CCCNC(=N)N)C(N)=O — bactericidal rate (colony count; 50 µg/mL, 2 h, 37 °C, pretreated trypsin intestinal fluid, with: trypsin 1 mg/mL): 75%
O=C(O)CCc1c(C(=O)O)[nH]c2ccccc12 — MIC of meropenem (DH5α with VIM-2 plasmid; 100 µg/mL, with: meropenem): 2 mg/L
CC(=O)NC[C@H]1CN(c2ccc(N3CCN(C(=O)CN)CC3)c(F)c2)C(=O)O1 — MIC activity class (broth dilution; drug-resistant; concentration not given): inactive
CO[C@@H](C(N)=O)[C@H](NC(=O)c1ccc(NC(=O)[C@@H](N)Cc2ccccc2)cc1)C(=O)Nc1ccc(C(=O)Nc2ccc(C(=O)Nc3ccc(C(=O)O)c(O)c3OC(C)C)c(O)c2OC(C)C)cc1 — MIC fold change (clones expressing AraC family proteins; concentration not given; baseline: empty vector): ≤ 4 fold
O=C1C=CC(=O)N1CCCCCCCCCCOCc1cn(CCCCCCCCCCN2C(=O)C=CC2=O)nn1 — IC50 (growth, turbidity OD600; ΔtolC; 24 h): > 100 µM
CN(C)S(=O)(=O)c1ccc(S(=O)(=O)N2CCC(n3c(=O)[nH]c4ccccc43)CC2)cc1 — streptomycin concentration (Keio wild type; concentration not given, 120 h): 7.84 µg/mL
CC[C@H](C)[C@H](NC(=O)[C@H](CCCCN)NC(=O)[C@H](CCCCN)NC(=O)[C@H](Cc1ccccc1)NC(=O)[C@H](Cc1ccccc1)NC(=O)[C@H](CCCCN)NC(=O)[C@H](CCCCN)NC(=O)[C@H](Cc1ccccc1)NC(=O)[C@H](CCCNC(=N)N)NC(=O)[C@@H](N)CCCCN)C(=O)N[C@@H](CCCCN)C(=O)N[C@@H](CCCCN)C(=O)N[C@@H](CO)C(=O)N[C@H](C(=O)N[C@@H](CCCCN)C(=O)N[C@@H](CCCCN)C(=O)N[C@@H](CCCNC(=N)N)C(=O)N[C@H](C(=O)N[C@@H](CCCCN)C(=O)N[C@@H](CCCCN)C(=O)N[C@@H](CC(C)C)C(=O)N[C@@H](Cc1ccccc1)C(=O)N[C@@H](CCCCN)C(=O)N[C@@H](CCCCN)C(=O)N1CCC[C@H]1C(=O)N[C@@H](CCCNC(=N)N)C(=O)N[C@H](C(=O)N[C@H](C(=O)N1CCC[C@H]1C(=O)N[C@H](C(=O)N[C@@H](CO)C(=O)N[C@H](C(=O)N1CCC[C@H]1C(=O)N[C@@H](Cc1ccccc1)C(=O)O)[C@@H](C)CC)[C@@H](C)CC)[C@@H](C)CC)C(C)C)C(C)C)C(C)C — MBC (E24 clinical isolate; 20 h): 8 mg/L
CCCC(=O)OCCSCCC(=O)N[C@H](CCN)C(=O)N[C@@H](CCN)C(=O)N[C@@H](CCN)C(=O)N[C@@H](CC(C)C)C(=O)N[C@H](Cc1ccccc1)C(=O)N[C@@H](CCN)C(=O)N[C@@H](CCN)C(=O)N[C@@H](CC(C)C)C(N)=O — MBC (ATCC 10546; 24 h, 37 °C): 16 µM
COc1ccc2c(c1OC)C[NH+]1CCc3cc4c(cc3C1C2)OCO4.[Cl][Fe-]([Cl])([Cl])[Cl] (stereo not shown) — MIC50 (24 h, 37 °C): 1280 µM
CC[C@H](C)[C@H](NC(=O)[C@H](CCCCN)NC(=O)[C@H](CC(=O)O)NC(=O)[C@H](CC(C)C)NC(=O)[C@@H](NC(=O)[C@H](CC(N)=O)NC(=O)[C@H](CC(C)C)NC(=O)[C@@H](NC(=O)[C@H](Cc1ccccc1)NC(=O)[C@H](CCCCN)NC(=O)[C@H](CCCCN)NC(=O)CNC(=O)[C@H](C)NC(=O)[C@H](CC(N)=O)NC(=O)[C@H](CCCCN)NC(=O)[C@H](Cc1ccccc1)NC(=O)[C@H](CC(N)=O)NC(=O)[C@H](CCC(=O)O)NC(=O)[C@H](Cc1c[nH]c2ccccc12)NC(=O)[C@H](CC(C)C)NC(=O)[C@@H](N)CO)[C@@H](C)CC)[C@@H](C)CC)C(=O)N[C@@H](CCCNC(=N)N)C(=O)N[C@H]1CSSC[C@@H](C(=O)N[C@@H](CCCNC(=N)N)C(=O)N[C@H](C(=O)O)[C@@H](C)O)NC(=O)CNC(=O)CNC(=O)[C@H](C)NC(=O)[C@H](C(C)C)NC(=O)[C@H](CCCNC(=N)N)NC1=O — time to eradication (colony counts; ATCC 8739; 1 x MIC): 30 min
CCCCCCCCCC(=O)OCCSC[C@H](N)C(=O)N[C@H](CCN)C(=O)N[C@@H](CCN)C(=O)N[C@@H](CCN)C(=O)N[C@@H](CC(C)C)C(=O)N[C@H](Cc1ccccc1)C(=O)N[C@@H](CCN)C(=O)N[C@@H](CCN)C(=O)N[C@@H](CC(C)C)C(N)=O — MBC (ATCC 10546; 24 h, 37 °C): 32 µM

Some of these lines once more:
O=C1C=CC(=O)N1CCCCCCCCCCOCc1cn(CCCCCCCCCCN2C(=O)C=CC2=O)nn1 — IC50 (growth, turbidity OD600; ΔtolC; 24 h): > 100 µM
CN(C)S(=O)(=O)c1ccc(S(=O)(=O)N2CCC(n3c(=O)[nH]c4ccccc43)CC2)cc1 — streptomycin concentration (Keio wild type; concentration not given, 120 h): 7.84 µg/mL
